Measured values from different studies.
A part holds a random share of what one study measured. Positions count from the first letter of the parent shown.

Block 1 — target: CCNF, cyclin fold, Cln2 fusion (human); method: yeast growth competition, sequencing; matrix: yeast; notes: strong parent motif; reference: not given; direction: higher = stronger binding
Parent: RBL1 docking peptide (human); GSAKRRLFGEDPP; partner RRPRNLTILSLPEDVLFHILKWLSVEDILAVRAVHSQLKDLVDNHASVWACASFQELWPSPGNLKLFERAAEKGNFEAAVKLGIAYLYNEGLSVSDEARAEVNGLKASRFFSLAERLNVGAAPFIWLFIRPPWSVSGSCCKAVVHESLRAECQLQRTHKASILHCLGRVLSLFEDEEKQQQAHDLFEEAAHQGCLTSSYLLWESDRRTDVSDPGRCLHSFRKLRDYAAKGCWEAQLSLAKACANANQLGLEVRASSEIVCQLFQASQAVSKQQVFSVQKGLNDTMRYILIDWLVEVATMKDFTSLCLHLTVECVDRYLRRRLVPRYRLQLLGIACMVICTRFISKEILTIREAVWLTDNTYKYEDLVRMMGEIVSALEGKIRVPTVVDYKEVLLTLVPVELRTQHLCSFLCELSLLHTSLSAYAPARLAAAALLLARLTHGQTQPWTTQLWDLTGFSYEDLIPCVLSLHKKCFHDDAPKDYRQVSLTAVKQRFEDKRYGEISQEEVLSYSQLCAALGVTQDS
| Variant | normalised enrichment score |
| --- | --- |
| F8M | 0.988 |
| K4I | 5.86 |
| L7Q | 0.739 |
| P13S | 6.65 |
| P13E | 6.64 |
| R5K F8L | 0.285 |
| S2I | 5.46 |
| E10R | 6.46 |
| G9H | 6.92 |
| G1W | 8.24 |
| L7E | -0.138 |
| E10G | 5.96 |
| F8P | 1.27 |

Block 2 — target: NFE2, bZIP domain (human); method: DHFR protein complementation; matrix: yeast; reference: wild-type JUN-FOS pair; direction: higher = stronger binding
Notes: single substitutions, most at no-binding floor
Parent: JUN, bZIP domain (human); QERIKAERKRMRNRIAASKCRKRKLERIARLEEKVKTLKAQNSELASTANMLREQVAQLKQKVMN; partner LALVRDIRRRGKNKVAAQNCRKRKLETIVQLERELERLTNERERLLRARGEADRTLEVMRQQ
| Variant | binding fitness [natural log] |
| --- | --- |
| Q55N | -1.43 |
| R30E | -1.41 |
| T37P | -1.5 |
| V35P | -1.52 |
| Q41G | -1.4 |
| T37D | -1.31 |
| Q41L | -1.52 |
| R30N | -1.51 |
| K36C | -1.37 |
| L45E | -1.54 |
| I28S | -1.43 |
| Q55L | -1.44 |
| S43K | -1.49 |

Block 3 — method: protein binding microarray; molecule type: double-stranded DNA, one strand shown; matrix: in vitro; concentration: not given; reference: not given; direction: higher = stronger binding
Target: Histone acetyltransferase KAT6A, winged helix 1, GST fusion (KAT6A, Homo sapiens, UniProt Q92794, residues 1-85)
Notes: 8-mer, flanks averaged, mean of 2 arrays, mostly near background
Residues (chain): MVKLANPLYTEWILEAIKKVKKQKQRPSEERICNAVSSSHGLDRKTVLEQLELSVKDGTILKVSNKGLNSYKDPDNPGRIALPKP
| Strand | E-score |
| --- | --- |
| GAGGGGTA | -0.0837 |
| CCTCTGGA | -0.179 |
| TGGACGAA | -0.141 |
| GCATTGAC | 0.0316 |
| AGCGTAAT | 0.0546 |
| GCGTTAAA | 0.0838 |
| AATTCACG | 0.00475 |
| AAGGGAAG | -0.0481 |
| AACGCCGG | 0.297 |
| AGCAGAGA | -0.237 |
| CAAAGTAC | -0.211 |
| CGGCCCGA | 0.299 |
| CGTATATC | 0.155 |
| TGGTAACA | -0.0659 |
| ACAGGAGC | -0.0817 |
| ATATCTAG | -0.184 |
| TGAATCAA | -0.0503 |
| ACTATACT | 0.02 |
| ACTGAGGC | 0.000775 |
| AAGAAAGC | -0.0138 |
| ATCAGTTC | -0.0722 |
| ACCTCCGT | 0.0359 |

Block 4 — method: RNA Bind-n-Seq; molecule type: RNA; matrix: in vitro; concentration: 365 nM; reference: no-protein control; direction: higher = stronger binding
Target: RNA binding protein fox-1 homolog 2, RRM domain, GST-SBP tag (RBFOX2, Homo sapiens, UniProt O43251-10, residues 100-194)
Notes: natural RNA segment, single round, ends assumed
Constant ends, left off below: GGGAGUUCUACAGUCCGACGAUC … UGGAAUUCUCGGGUGCCAA
Construct (chain): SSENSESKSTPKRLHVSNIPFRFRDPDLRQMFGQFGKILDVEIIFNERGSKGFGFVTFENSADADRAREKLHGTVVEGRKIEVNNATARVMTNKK
| Strand | RBNS enrichment (R) |
| --- | --- |
| CCCCAACCCCUCGCCCUGCCAUCUUCCCCUCAAGCCUGCUAAGUUAUCCCAGGCCUGUGCGUGGUGGAAAAAGCCAGCCUUGGCCCUGCAGCCUCCACCUCGCCGCUGGG | 0.994 |
| CCCCAACCCAGGCCCCUGGCGUGUGUGGGUGUGCGUGCGUGUGCGUGCCGUGUUCGUGUGCAAGGGGCCGGGGAGGUGGGCGUGUGUGUGCGUGCCAGCGAAGGCUGCUG | 0.372 |
| AGUGUUCCAGUGACCAAGCCAGUCAUUCGGACACUGAUUUGCAGUGCAUUGGCAGUAAUUCACAAAUUAGUUGUUAUAUAAGUCUCUCUCAUCCCUUUCACACUAGAUUC | 0.373 |
| UACCAUUAACUAUGAGAUUAACAAAAACUUUUACCUUUGUGCAGAAGGUUAAAAAAAAAAAAACAUGGUUAAGGAAAAGGAGACAUGUUACCUCUUCAUACACUCCUAUA | 0.463 |
| CUGGGGAACAGCUCUCGGUGUUGACUGCAUUGUUGCAGUCUCCCAAGUCUGCCCUGUUUUUUUAAUUCUUUAUUCUUGUGACAGCAUUUUUGGACGUUGGAAGAGCUCAG | 0.43 |
| UUAGUCUGCUGAGCCAGCUUUACCCAAUGAAGGGCAUAUGUGUUAGAGAGAUUAGCUAAGAGUAGAAAUUCGAGCAUAGAGGCCAGGUGCGGUGGCUCACGCCUGUAAUC | 0.536 |
| GGCCCAGCUGGGACUGUGUGCUCCCGGCCUUCUAGCCCCACAGCCCACAGACAUUGGUCUUGAGAGAGCCUUGGCUGUGUAUCAAUUACAAAGCCCUGCCAGCAAGGGGA | 0.235 |
| AUAUAUAUUUAAUUUUCUUAAAUUCCCGUUAAACUCUAUUUUAUGGUUUUGAUUUCAGAUUGCAAACAUGUAAAACCUGCAUAGCAGCGAGUUCUCGGUUUUGCCGGUUU | 0.616 |
| UGUAUAGACAUUAUUUUCGUCGUAUGUUUCUAUAUUUUGAAACAAAGGUAUGUAACUUCUUCAUUUGAAGGAUAAGCUGGUUUGUGUUAAGCAGUAUAGUAUUGGUUGGG | 0.794 |
| UUUAAACAAUUUUUAAGACUUGUAAUUACCCUGAAAAUAAGGUUUAUAAUGCAAAGACCAGCUCCUUUGCGGUGGCAGUGCUCUAGGGCUGCCAUUACACGGUCUUGUGA | 0.28 |
| UAAUUGUUAAGCCUCUUAUUCUAAAGUCCAUAGCAAUGCUAUGGAAUAUCAAGUAUAAUGAUGUAGUAAAAAGAUUUCUCCAGAAAACACUUUGAGAUACUUAAAGAAAU | 0.314 |
| AGACAUUGAGACAUUGUAUUUUGCCUUAGCAGGGAUGAGUUGGUCUCUCCUGGCUGGGCCAUCCCAUCCCCAAUCUGGUUCUUGCACACUCAGGCCUAAUUCCCUCUGCA | 2.96 |

Block 5 — method: aptamer microarray, sandwich; molecule type: DNA with 2'F-ANA; matrix: in vitro; concentration: 200 nM; added: Cy3 exosite-II aptamer, 400 nM; direction: higher = stronger binding; strand: GGTTGGTGTGGTTGG
Target: Prothrombin, mature alpha-thrombin (F2, Homo sapiens, UniProt P00734)
Notes: whole 15-mer aptamer, many near background
| Modification | mean fluorescence intensity |
| --- | --- |
| 2'F-ANA at 1 7 8 10 13 14 15 | 54.2 a.u. |
| 2'F-ANA at 1 4 6 7 8 13 14 15 | 49.6 a.u. |
| 2'F-ANA at 4 8 9 | 379 a.u. |
| 2'F-ANA at 1 2 4 5 7 8 9 10 11 13 14 | 46.6 a.u. |
| 2'F-ANA at 4 7 9 10 11 12 13 15 | 92 a.u. |
| 2'F-ANA at 1 2 3 5 6 | 139 a.u. |
| 2'F-ANA at 3 5 7 9 10 11 12 14 | 85 a.u. |
| 2'F-ANA at 6 7 13 14 15 | 232 a.u. |
| 2'F-ANA at 1 3 13 | 245 a.u. |
| 2'F-ANA at 1 2 8 10 13 14 15 | 83.7 a.u. |
| 2'F-ANA at 1 2 3 4 5 14 15 | 48.4 a.u. |
| 2'F-ANA at 2 3 9 10 13 | 324 a.u. |
| 2'F-ANA at 5 7 8 14 15 | 48.1 a.u. |
| 2'F-ANA at 3 4 5 6 7 8 10 12 14 | 51.3 a.u. |
| 2'F-ANA at 2 4 6 7 8 9 | 317 a.u. |
| 2'F-ANA at 3 5 6 8 9 10 13 14 15 | 49.9 a.u. |
| 2'F-ANA at 1 2 7 13 14 | 64 a.u. |
| 2'F-ANA at 1 2 4 8 12 | 406 a.u. |

Block 6 — method: DHFR PCA, deep sequencing; matrix: yeast; added: (+)-ABA 710 µM; reference: wild-type fitted maximum; direction: higher = stronger binding
Target: ABI1, truncated, D143A, DHFR fusion (Arabidopsis thaliana)
Notes: methotrexate growth selection, single substitutions
Parent: PYL1, truncated, DHFR fusion (Arabidopsis thaliana); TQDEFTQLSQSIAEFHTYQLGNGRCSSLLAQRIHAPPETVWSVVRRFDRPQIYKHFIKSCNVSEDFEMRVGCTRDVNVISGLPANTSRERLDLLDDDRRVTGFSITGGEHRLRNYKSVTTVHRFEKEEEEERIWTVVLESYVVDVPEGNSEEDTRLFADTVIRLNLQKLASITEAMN; partner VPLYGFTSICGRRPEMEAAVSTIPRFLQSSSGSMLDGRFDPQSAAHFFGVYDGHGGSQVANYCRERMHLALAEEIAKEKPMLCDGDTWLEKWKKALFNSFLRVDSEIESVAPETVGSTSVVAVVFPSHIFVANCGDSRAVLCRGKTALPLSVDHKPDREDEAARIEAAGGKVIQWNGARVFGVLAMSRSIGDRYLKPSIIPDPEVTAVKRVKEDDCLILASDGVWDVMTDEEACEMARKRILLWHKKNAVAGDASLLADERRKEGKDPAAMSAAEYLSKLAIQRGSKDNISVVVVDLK
| Variant | relative binding score |
| --- | --- |
| R155V | 102% |
| R98H | 109% |
| Q19N | 102% |
| R113M | 102% |
| L91N | 28.8% |
| S26I | 86.7% |
| S171M | 96.4% |
| E127D | 110% |
| K116P | -12.6% |
| P50M | -5.23% |
| E129W | 108% |
| K58E | 103% |
| T39D | 102% |
| T86R | 102% |
| N149F | 34.4% |
| G71M | 68.4% |

For quick reference, copied from above (block 2):
| Variant | binding fitness [natural log] |
| --- | --- |
| V35P | -1.52 |
| T37D | -1.31 |
| Q41L | -1.52 |
| R30E | -1.41 |
| L45E | -1.54 |
| Q55N | -1.43 |
| S43K | -1.49 |
| K36C | -1.37 |
| R30N | -1.51 |
| I28S | -1.43 |
